Measurements pooled from the literature.
Protocols differ between the studies behind these lines. Numbers after ± are the reported error.
Organism: Escherichia coli

SMILES | assay | system | setting | MIC
CSCC[C@H](NC(=O)[C@H](CC(N)=O)NC(=O)[C@@H]1CCCN1C(=O)[C@@H]1CCCN1C(=O)[C@H](CCCNC(=N)N)NC(=O)[C@@H]1CCCN1C(=O)[C@H](CCCNC(=N)N)NC(=O)[C@@H]1CCCN1C(=O)[C@H](CCCNC(=N)N)NC(=O)[C@H](Cc1ccc(O)cc1)NC(=O)[C@H](CC(=O)O)NC(=O)[C@@H]1CCCN1C(=O)[C@H](CCCCN)NC(=O)[C@H](CC(=O)O)NC(=O)[C@@H](N)C(C)C)C(=O)O | broth microdilution | K12 | 37 °C | > 100 µM
CC[C@H](C)[C@H](N)C(=O)N[C@@H](CC(C)C)C(=O)NCC(=O)N1CCC[C@H]1C(=O)N[C@H](C(=O)N[C@@H](CC(C)C)C(=O)NCC(=O)N[C@@H](CC(C)C)C(=O)N[C@H](C(=O)N[C@@H](CO)C(=O)N[C@@H](CC(=O)O)C(=O)N[C@H](C(=O)N[C@@H](CC(C)C)C(=O)N[C@@H](CC(=O)O)C(=O)N[C@@H](CC(=O)O)C(=O)N[C@H](C(=O)N[C@@H](CC(C)C)C(=O)NCC(=O)N[C@H](C(=O)N[C@@H](CC(C)C)C(=O)N[C@@H](CS)C(=O)O)[C@@H](C)CC)C(C)C)[C@@H](C)O)C(C)C)C(C)C |  | ATCC 25922 | 24 h, 37 °C | 90 µM
CC[C@H](C)[C@H](NC(=O)[C@H](CC(C)C)NC(=O)[C@@H]1CCCN1C(=O)[C@H](Cc1ccccc1)NC(=O)[C@H](CC(C)C)NC(=O)[C@@H](N)Cc1ccccc1)C(=O)N[C@H](C(=O)N[C@@H](CO)C(=O)N[C@@H](Cc1ccccc1)C(=O)N[C@@H](CC(C)C)C(=O)N[C@@H](CO)C(=O)N[C@@H](CCCCN)C(=O)N[C@H](C(=O)N[C@@H](CC(C)C)C(=O)O)C(C)C)[C@@H](C)O | broth microdilution | K12 | 37 °C | > 100 µM
CC[C@H](C)[C@H](NC(=O)[C@@H]1CCCN1C(=O)[C@H](CCCNC(=N)N)NC(=O)[C@@H]1CCCN1C(=O)[C@@H]1CCCN1C(=O)[C@@H](NC(=O)[C@@H]1CCCN1C(=O)[C@H](CCCNC(=N)N)NC(=O)[C@@H]1CCCN1C(=O)[C@H](CC(C)C)NC(=O)[C@H](Cc1ccc(O)cc1)NC(=O)[C@H](CO)NC(=O)CNC(=O)[C@H](CCCCN)NC(=O)[C@H](CC(=O)O)NC(=O)[C@@H](N)C(C)C)[C@@H](C)O)C(=O)N[C@@H](Cc1ccc(O)cc1)C(=O)N[C@@H](CC(N)=O)C(=O)N[C@@H](CCCNC(=N)N)C(=O)N[C@@H](CC(N)=O)C(=O)O |  | JW0013 | 18 h, 37 °C, 12.5% Mueller-Hinton broth | 0.15 ± 0.034 µM
CC[C@H](C)[C@H](NC(=O)[C@H](Cc1ccccc1)NC(=O)CN)C(=O)N[C@@H](CCCCN)C(=O)N[C@H](C(=O)N[C@H](C(=O)N[C@@H](CCCNC(=N)N)C(=O)N[C@@H](CCCCN)C(=O)N[C@@H](CC(C)C)C(=O)N[C@@H](CC(C)C)C(=O)N[C@@H](CCCNC(=N)N)C(=O)N[C@@H](CC(C)C)C(=O)N[C@@H](Cc1ccccc1)C(N)=O)C(C)C)[C@@H](C)CC |  | ATCC 25922 | 1 h, 37 °C, dividing cells in LB | 6.25 µg/mL
CC(C)C[C@H](NC(=O)[C@H](CCCNC(=N)N)NC(=O)[C@@H]1CCCN1C(=O)[C@H](Cc1c[nH]cn1)NC(=O)[C@@H]1CCCN1C(=O)[C@@H]1CCCN1C(=O)[C@H](CCCNC(=N)N)NC(=O)[C@@H]1CCCN1C(=O)[C@H](CCC(N)=O)NC(=O)[C@@H]1CCCN1C(=O)[C@H](CCCNC(=N)N)NC(=O)[C@H](Cc1ccc(O)cc1)NC(=O)[C@@H](NC(=O)[C@@H]1CCCN1C(=O)[C@H](CCCCN)NC(=O)[C@H](CC(N)=O)NC(=O)[C@H](CC(N)=O)NC(=O)CN)C(C)C)C(=O)O | broth microdilution | BW25113, 20% M9 medium |  | 0.384 ± 0.08 µM
CC[C@H](C)[C@H](NC(=O)[C@H](C)NC(=O)[C@@H]1CCCN1C(=O)[C@@H](NC(=O)[C@@H](NC(=O)[C@H](Cc1c[nH]cn1)NC(=O)[C@H](CO)NC(=O)[C@@H](NC(=O)[C@@H](NC(=O)[C@H](CO)NC(=O)CNC(=O)[C@H](CC(C)C)NC(=O)[C@H](CC(C)C)NC(=O)CNC(=O)[C@H](CC(C)C)NC(=O)[C@H](CC(C)C)NC(=O)CN)C(C)C)C(C)C)C(C)C)C(C)C)C(=O)N[C@H](C(=O)NCC(=O)N[C@@H](Cc1c[nH]cn1)C(=O)N[C@@H](Cc1ccccc1)C(N)=O)C(C)C | broth microdilution | K12 | 37 °C | > 100 µM
CC(C)C[C@H](NC(=O)[C@H](Cc1c[nH]c2ccccc12)NC(=O)[C@H](CCCNC(=N)N)NC(=O)[C@H](CC(C)C)NC(=O)[C@H](CCCNC(=N)N)NC(=O)[C@H](Cc1c[nH]c2ccccc12)NC(=O)[C@H](Cc1c[nH]c2ccccc12)NC(=O)[C@H](CC(C)C)NC(=O)[C@H](CCCCN)NC(=O)[C@H](Cc1c[nH]c2ccccc12)NC(=O)[C@@H](NC(=O)[C@@H](N)CC(C)C)C(C)C)C(=O)N[C@@H](CCCCN)C(N)=O | broth microdilution | ATCC 25922, LB medium | 16 to 20 h, 37 °C | 100 µg/mL
CC(C)C[C@H](N)C(=O)N[C@@H](CS)C(=O)N1CCC[C@H]1C(=O)N[C@@H](Cc1c[nH]cn1)C(=O)N[C@@H](CCCNC(=N)N)C(=O)N[C@@H](CS)C(=O)O | broth microdilution | MTCC 443 | 37 °C | 25 µg/mL
CC(C)C[C@H](NC(=O)CN)C(=O)N[C@@H](Cc1ccccc1)C(=O)N[C@@H](CCCCN)C(=O)N[C@@H](CC(C)C)C(=O)N[C@@H](CC(C)C)C(=O)N[C@@H](CCCCN)C(=O)N[C@@H](CCCCN)C(=O)N[C@@H](CC(C)C)C(=O)N[C@@H](CC(C)C)C(=O)N[C@@H](CCCCN)C(=O)N[C@@H](CC(C)C)C(=O)N[C@@H](CC(C)C)C(=O)N[C@@H](CCCCN)C(N)=O |  | ATCC 25922, CAMHB | 18 h, 37 °C | > 20 µM
CC[C@H](C)[C@H](NC(=O)CN)C(=O)N[C@@H](CCCCN)C(=O)N[C@@H](Cc1ccccc1)C(=O)N[C@@H](Cc1ccccc1)C(=O)N[C@@H](CC(C)C)C(=O)N[C@@H](CCCCN)C(=O)N[C@@H](CCCCN)C(=O)N[C@@H](CC(C)C)C(=O)N[C@@H](CCCCN)C(=O)N[C@@H](CCCCN)C(=O)N[C@@H](Cc1c[nH]cn1)C(N)=O |  | ATCC 25922 | 1 h, 37 °C, dividing cells in LB | ≥ 100 µg/mL
CC[C@H](C)[C@H](NC(=O)[C@@H]1CCCN1C(=O)[C@H](CCCCN)NC(=O)[C@@H]1CCCN1C(=O)[C@@H]1CCCN1C(=O)[C@@H](NC(=O)[C@@H]1CCCN1C(=O)[C@H](CCCNC(=N)N)NC(=O)[C@@H]1CCCN1C(=O)[C@H](CCCCN)NC(=O)[C@H](Cc1ccc(O)cc1)NC(=O)[C@H](CO)NC(=O)CNC(=O)[C@H](CCCCN)NC(=O)[C@H](CC(=O)O)NC(=O)[C@@H](N)C(C)C)[C@@H](C)O)C(=O)N[C@@H](Cc1ccc(O)cc1)C(=O)N[C@@H](CC(N)=O)C(=O)N[C@@H](CCCNC(=N)N)C(=O)N[C@@H](CC(N)=O)C(=O)O | broth microdilution | BW25113 parental, Mueller-Hinton broth | 18 h, 37 °C | 0.075 ± 0.018 µM
CC(C)C[C@H](NC(=O)[C@H](C)NC(=O)[C@@H](N)CO)C(=O)N[C@@H](Cc1c[nH]cn1)C(=O)N[C@@H](CC(C)C)C(=O)N[C@H](C(=O)N[C@@H](CC(C)C)C(=O)N[C@@H](CCCNC(=N)N)C(=O)N[C@@H](CC(C)C)C(=O)N[C@@H](CCCNC(=N)N)C(=O)NCC(=O)NCC(=O)O)C(C)C |  | DH5α | 37 °C, ≥90% viability decrease | > 100 µM
CC[C@H](C)[C@H](NC(=O)CNC(=O)[C@H](CCCNC(=N)N)NC(=O)[C@H](Cc1ccccc1)NC(=O)[C@@H](NC(=O)[C@H](Cc1c[nH]cn1)NC(=O)[C@H](Cc1c[nH]cn1)NC(=O)[C@H](Cc1ccccc1)NC(=O)[C@@H](N)Cc1ccccc1)[C@@H](C)CC)C(=O)N[C@H](C(=O)N[C@@H](Cc1c[nH]cn1)C(=O)N[C@H](C(=O)NCC(=O)N[C@@H](CCCCN)C(=O)N[C@H](C(=O)N[C@@H](C)C(=O)N[C@@H](Cc1c[nH]cn1)C(=O)N[C@@H](CCCNC(=N)N)C(=O)N[C@@H](CC(C)C)C(=O)N[C@H](C(=O)N[C@H](C(=O)NCC(N)=O)[C@@H](C)O)C(C)C)[C@@H](C)O)C(C)C)C(C)C | broth microdilution | ATCC 25922 | 18 h, 37 °C | 3.1 µg/mL
CC[C@H](C)[C@H](NC(=O)[C@H](CCCNC(=N)N)NC(=O)[C@@H](N)CCCNC(=N)N)C(=O)N[C@@H](CCCCN)C(=O)N1CCC[C@H]1C(=O)N[C@@H](CCCNC(=N)N)C(=O)N1CCC[C@H]1C(=O)N1CCC[C@H]1C(=O)N[C@@H](CCCNC(=N)N)C(=O)N[C@@H](CC(C)C)C(=O)N1CCC[C@H]1C(=O)N[C@@H](CCCNC(=N)N)C(=O)N1CCC[C@H]1C(=O)N[C@@H](CCCNC(=N)N)C(=O)N1CCC[C@H]1C(=O)N[C@@H](CCCCN)C(=O)O | broth microdilution | BW25113 parental, Mueller-Hinton broth | 18 h, 37 °C | 0.06 ± 0.014 µM
CC(C)C[C@H](NC(=O)[C@H](CCCCN)NC(=O)[C@H](Cc1c[nH]c2ccccc12)NC(=O)[C@H](CCCCN)NC(=O)[C@H](CC(C)C)NC(=O)[C@H](Cc1c[nH]c2ccccc12)NC(=O)[C@H](CC(C)C)NC(=O)[C@H](CCCCN)NC(=O)[C@H](CC(C)C)NC(=O)[C@H](CCCCN)NC(=O)[C@H](CCCCN)NC(=O)[C@@H](N)Cc1c[nH]c2ccccc12)C(=O)N[C@@H](Cc1c[nH]c2ccccc12)C(N)=O |  | ATCC 25922 | 1 h, 37 °C, dividing cells in LB | 50 to 100 µg/mL
CC1(C)SC2C(NC(=O)C(NC(=O)C3=C(O)C(Cc4ccco4)NC3=O)c3ccccc3)C(=O)N2C1C(=O)O (stereo not drawn) | broth microdilution | BW25113, Mueller-Hinton broth | with: 2,2'-bipyridyl 30 µg/mL | 3.13 µg/mL
CC(C)C[C@H](NC(=O)[C@H](CCCNC(=N)N)NC(=O)[C@@H]1CCCN1C(=O)[C@H](Cc1c[nH]cn1)NC(=O)[C@@H]1CCCN1C(=O)[C@@H]1CCCN1C(=O)[C@H](CCCNC(=N)N)NC(=O)[C@@H]1CCCN1C(=O)[C@H](CCC(N)=O)NC(=O)[C@@H]1CCCN1C(=O)[C@H](CCCCN)NC(=O)[C@H](Cc1ccc(O)cc1)NC(=O)[C@@H](NC(=O)[C@@H]1CCCN1C(=O)[C@H](CCCCN)NC(=O)[C@H](CC(N)=O)NC(=O)[C@H](CC(N)=O)NC(=O)CN)C(C)C)C(=O)O |  | JW0368 ΔsbmA | 18 h, 37 °C, 12.5% Mueller-Hinton broth | 0.096 ± 0.023 µM

For quick reference, copied from above:
SMILES | assay | system | setting | MIC
CC(C)C[C@H](NC(=O)CN)C(=O)N[C@@H](Cc1ccccc1)C(=O)N[C@@H](CCCCN)C(=O)N[C@@H](CC(C)C)C(=O)N[C@@H](CC(C)C)C(=O)N[C@@H](CCCCN)C(=O)N[C@@H](CCCCN)C(=O)N[C@@H](CC(C)C)C(=O)N[C@@H](CC(C)C)C(=O)N[C@@H](CCCCN)C(=O)N[C@@H](CC(C)C)C(=O)N[C@@H](CC(C)C)C(=O)N[C@@H](CCCCN)C(N)=O |  | ATCC 25922, CAMHB | 18 h, 37 °C | > 20 µM
